Measurements pooled from the literature.
Numbered parts are unrelated; each lists some results of a single study.

Series 1 — technique: protein binding microarray; molecule type: double-stranded DNA, one strand shown; medium: in vitro; concentration: not given; relative to: not given; direction: higher = stronger binding
Target: Histone acetyltransferase KAT6A, both winged helices, GST fusion (KAT6A, Homo sapiens, UniProt Q92794, residues 1-181)
Setting: 8-mer, flanks averaged, mean of 2 arrays, mostly near background
Target sequence (chain): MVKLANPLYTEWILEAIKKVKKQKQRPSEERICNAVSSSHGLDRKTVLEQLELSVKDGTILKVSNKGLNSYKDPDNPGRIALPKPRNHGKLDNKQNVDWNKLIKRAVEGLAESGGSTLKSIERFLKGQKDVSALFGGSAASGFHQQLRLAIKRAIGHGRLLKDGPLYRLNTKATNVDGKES
With `CAACAAAG` the E-score was -0.268.
`AACGTCGA` gave an E-score of -0.0205.
`TCAGCGGA` gave an E-score of 0.195.
`AGAATAGC` has an E-score of 0.0183.

Series 2 — technique: protein-binding microarray; molecule type: double-stranded DNA, one strand shown; medium: in vitro; concentration: 940 nM top; setting: 60-bp whole probe; with: salmon DNA 0.4 mg/ml; relative to: random background probes; direction: higher = stronger binding; constant ends, left off below: GCCTAGCAC … GTCTTGATTCGCTTGACGCTGCTG
Target: Interferon regulatory factor 5, full length, phosphomimetic (IRF5, Homo sapiens, UniProt Q13568-2, residues 1-514, S451D/S453D/S456D/S462D)
`GTAGGCTTCTATGTAGTTGAGTGCTAG` — result for “fitted relative affinity”: -0.475 z-score.
`GACGGCTTCGGTCTCGGGACGTGCTAG`: “fitted relative affinity” 0.0949 z-score.
Under “fitted relative affinity”, `GACGTTCTCAGTTTCGAGACGTGCTAG` is recorded as 4.64 z-score.
`GACGGTTTCCTTTTCCTAACGTGCTAG`: “fitted relative affinity” 2.02 z-score.
`TTAGACCTCAGTCTCGATTAGTGCTAG`: “fitted relative affinity” 2.45 z-score.
For `TTAGGACTGGGGTATGGGTTAGTGCTA`, “fitted relative affinity” read 0.202 z-score.

Series 3 — technique: universal PBM; molecule type: double-stranded DNA, one strand shown; medium: in vitro; concentration: 600 nM; direction: higher = stronger binding
Target: Sal-like protein 4, full length isoform A (SALL4, Homo sapiens, UniProt Q9UJQ4, residues 1-1053)
Sequence of UniProt Q9UJQ4 (whole entry, looked up): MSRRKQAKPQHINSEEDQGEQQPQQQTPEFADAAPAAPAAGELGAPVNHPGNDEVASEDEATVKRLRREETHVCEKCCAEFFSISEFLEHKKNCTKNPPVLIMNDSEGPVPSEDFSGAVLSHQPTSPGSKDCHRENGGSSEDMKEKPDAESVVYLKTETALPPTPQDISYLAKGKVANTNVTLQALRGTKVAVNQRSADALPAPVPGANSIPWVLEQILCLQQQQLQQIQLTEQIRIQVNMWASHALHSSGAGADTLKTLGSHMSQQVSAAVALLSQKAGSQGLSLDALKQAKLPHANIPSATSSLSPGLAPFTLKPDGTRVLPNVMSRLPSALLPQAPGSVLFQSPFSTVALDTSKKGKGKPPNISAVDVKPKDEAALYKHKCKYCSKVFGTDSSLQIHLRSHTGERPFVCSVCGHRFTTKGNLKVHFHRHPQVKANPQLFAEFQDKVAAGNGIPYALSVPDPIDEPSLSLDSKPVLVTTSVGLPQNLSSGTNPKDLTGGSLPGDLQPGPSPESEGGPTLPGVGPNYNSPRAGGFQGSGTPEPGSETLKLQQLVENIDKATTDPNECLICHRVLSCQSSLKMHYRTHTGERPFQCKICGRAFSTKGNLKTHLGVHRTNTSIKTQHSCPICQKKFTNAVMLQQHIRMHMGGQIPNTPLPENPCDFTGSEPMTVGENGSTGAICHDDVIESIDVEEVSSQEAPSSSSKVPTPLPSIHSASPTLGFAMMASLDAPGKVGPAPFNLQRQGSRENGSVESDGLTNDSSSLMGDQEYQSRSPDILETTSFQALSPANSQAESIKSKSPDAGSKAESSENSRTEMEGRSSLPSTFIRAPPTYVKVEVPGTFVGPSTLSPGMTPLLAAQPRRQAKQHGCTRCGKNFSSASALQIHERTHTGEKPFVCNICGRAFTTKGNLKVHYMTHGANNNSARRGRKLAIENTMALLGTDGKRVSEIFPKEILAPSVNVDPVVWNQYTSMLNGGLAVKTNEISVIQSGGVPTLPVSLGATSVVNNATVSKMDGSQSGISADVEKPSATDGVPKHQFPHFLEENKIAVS
Setting: 8-mer, flanks averaged, mean of replicates
`GCTGTCCA` has an E-score of -0.0717.
For `GCGACAGA`, the E-score was -0.181.
`CAGAAAGC` gave an E-score of -0.0974.
With `CGGGCAAG` the E-score was -0.237.
The E-score of `ATGAGGGG` is reported as -0.123.
With `ATAGACCG` the E-score was -0.0562.
For `CGCCAAAC`, the E-score was -0.164.

Other studies, line by line
With `PhoQ, residues 284 288 289 292 302 303 QWGLFV` the fold induction was 6.37 (PhoP, residues 12 14 15 18 19 AGCRL (Escherichia coli, UniProt P23836); Sort-seq, refers to: YFP reporter; E. coli; PhoQ-PhoP variant library, with: 10 µM Mg2+; relative to: high Mg2+ state, higher = stronger signaling).

For quick reference, copied from above (series 2):
`GACGGTTTCCTTTTCCTAACGTGCTAG`: “fitted relative affinity” 2.02 z-score.
